# Literature values as cited in several papers.
# Protocols differ between the studies behind these lines. Values joined by “and” are separate records of one study, mostly repeats; a detail may differ. pEC50, pIC50: −log10 of the molar value.
# UniProt Q9UKE5, sequence (whole entry, looked up): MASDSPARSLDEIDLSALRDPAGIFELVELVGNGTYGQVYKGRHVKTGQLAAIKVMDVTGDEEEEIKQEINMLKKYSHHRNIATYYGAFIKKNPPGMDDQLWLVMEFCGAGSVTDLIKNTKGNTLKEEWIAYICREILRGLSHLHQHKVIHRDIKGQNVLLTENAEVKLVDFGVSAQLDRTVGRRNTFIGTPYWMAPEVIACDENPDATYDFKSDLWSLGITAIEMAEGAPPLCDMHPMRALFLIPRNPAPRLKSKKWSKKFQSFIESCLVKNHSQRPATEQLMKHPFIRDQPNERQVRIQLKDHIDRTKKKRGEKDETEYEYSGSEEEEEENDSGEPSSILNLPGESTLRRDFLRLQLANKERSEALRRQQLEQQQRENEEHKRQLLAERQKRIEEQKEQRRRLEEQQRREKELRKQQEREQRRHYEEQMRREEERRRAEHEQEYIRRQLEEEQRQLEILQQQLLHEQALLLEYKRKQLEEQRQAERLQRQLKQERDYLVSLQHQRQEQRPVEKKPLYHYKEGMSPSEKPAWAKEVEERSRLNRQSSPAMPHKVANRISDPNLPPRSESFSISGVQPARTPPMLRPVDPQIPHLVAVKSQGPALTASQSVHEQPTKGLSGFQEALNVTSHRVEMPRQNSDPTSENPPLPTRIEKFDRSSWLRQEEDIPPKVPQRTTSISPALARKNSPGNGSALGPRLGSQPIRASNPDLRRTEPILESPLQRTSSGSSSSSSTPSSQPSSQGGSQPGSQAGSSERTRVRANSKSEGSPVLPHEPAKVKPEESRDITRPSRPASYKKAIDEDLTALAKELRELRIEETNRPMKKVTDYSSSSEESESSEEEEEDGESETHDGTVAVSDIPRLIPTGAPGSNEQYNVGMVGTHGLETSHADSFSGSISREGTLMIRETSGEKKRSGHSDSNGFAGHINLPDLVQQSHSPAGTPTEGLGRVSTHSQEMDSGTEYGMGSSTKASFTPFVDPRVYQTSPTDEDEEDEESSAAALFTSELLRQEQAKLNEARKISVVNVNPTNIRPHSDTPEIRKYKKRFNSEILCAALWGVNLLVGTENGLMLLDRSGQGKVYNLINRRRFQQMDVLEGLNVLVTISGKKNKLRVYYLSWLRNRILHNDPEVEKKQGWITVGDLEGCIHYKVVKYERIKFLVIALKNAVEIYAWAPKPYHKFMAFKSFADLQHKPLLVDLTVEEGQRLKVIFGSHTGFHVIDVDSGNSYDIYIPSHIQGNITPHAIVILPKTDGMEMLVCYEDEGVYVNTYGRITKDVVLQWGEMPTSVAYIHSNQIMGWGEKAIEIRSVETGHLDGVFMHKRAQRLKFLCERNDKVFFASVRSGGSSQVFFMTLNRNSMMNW
SMILES,tested on,test,system,conditions,scale,measurement,result
N#Cc1cc(NC(=O)[C@H]2c3ccccc3C(=O)N(CC(F)(F)F)[C@@H]2c2cccnc2)ccc1F,Plasmodium falciparum,,"3D70087/N9, NSG mouse",,,ED90,< 2 mg/kg and 1.9 mg/kg
CNC(C)C1CCC(N)C(OC2C(N)CC(N)C(OC3OCC(C)(O)C(NC)C3O)C2O)O1 (stereo not shown),Acinetobacter baumannii,,clinical isolate RKI-No_230/15,,,MIC,> 8 µg/mL
O=C(C1CCCCC1)N1CC(=O)N2CCc3ccccc3[C@@H]2C1,Schistosoma mansoni,,infected mice,200 mg/kg,reference: untreated,worm burden reduction,98%
O=C(Cn1ccnc1[N+](=O)[O-])NCc1ccccc1,Trypanosoma cruzi,parasite growth,"rat L6E9 myoblasts, amastigote",,,pIC50,5.43
Cc1[nH]c(C)c(-c2ccc(-c3cccc(OC(F)(F)F)c3)nc2)c(=O)c1Cl,Plasmodium falciparum,whole cell extended time,3D7,72 h,,pIC50,7.15
C[C@H]1COCCN1c1nc(-c2cnc(N)cc2C(F)F)nc(N2CCOCC2)n1,LS174T,,,,,GI50,0.403 µM
N#COCCOc1ccc(Oc2ccccc2)cc1,Trypanosoma cruzi,parasite growth,intracellular amastigotes,,,pEC50,< 5.00
O=C(c1cc(-c2ccco2)[nH]n1)N1CCN(S(=O)(=O)c2ccc(Br)cc2)CC1,Plasmodium falciparum,whole cell extended time,3D7,72 h,,pIC50,6.30
[N-]=[N+]=N[C@]1(CO)O[C@@H](n2ccc(N)nc2=O)[C@@H](F)[C@@H]1O,respiratory syncytial virus,viral replication,HEK293T,,,pEC50,< 4.00
CC1(C)S[C@@H]2[C@H](NC(=O)[C@H](N)c3ccccc3)C(=O)N2[C@H]1C(=O)O,Acinetobacter baumannii,,clinical isolate RKI-No_3/15,,,MIC,> 16 µg/mL
Oc1ccc(-c2nc(-c3ccc(OC4CCCC4)cc3)no2)cc1,Klebsiella pneumoniae,,ATCC 700603,,,MIC,> 128 µg/mL
Cc1[nH]c(C)c(-c2cccc(-c3ccc(OC(F)(F)F)cc3)c2)c(=O)c1Br,Plasmodium falciparum,whole cell extended time,3D7,72 h,,pIC50,6.39
O=c1c(O)c(-c2ccc(O)c(O)c2)oc2cc(O)cc(O)c12,human cytomegalovirus,viral replication,,,,IC50,5.93 µg/mL
O=C(NC(=O)c1ccccc1O)c1ccccc1O,Plasmodium falciparum,whole cell extended time,3D7,72 h,,pIC50,6.15
Nc1[nH]c(=O)ncc1F,Candida albicans,,,,,pIC50,6.03
Nc1cc(C(F)(F)F)c(-c2nc(N3CCOCC3)nc(N3CCOCC3)n2)cn1,"TNIK (Homo sapiens, UniProt Q9UKE5)",enzyme activity,,10 µM,reference: untreated,remaining activity,75%
c1cc(CN2CCN(c3ccncc3)CC2)cc(-c2ccc(-c3nc4ccccc4[nH]3)cc2)c1,Plasmodium falciparum,whole cell extended time,3D7,72 h,,pIC50,6.82
COc1ccccc1Oc1cccc(CN2CCC(NC(=O)C(CCN3CCCC3)c3ccccc3)CC2)c1 (stereo not shown),human CCR8 F123A mutant (TM3),"IP accumulation, agonist",,,,pEC50,8.30
Cc1cnc(N2CC3(CCOCC3)C2)c(C(=O)Nc2ccc(C(=O)N3CCc4cc(C(=O)Nc5c(C)cccc5F)sc4-c4ccccc43)cc2)c1,respiratory syncytial virus,cytopathic effect,5 subtype B clinical isolates,,,median IC90,0.36 µg/mL

# Some of these lines once more:
SMILES,tested on,test,system,conditions,scale,measurement,result
CNC(C)C1CCC(N)C(OC2C(N)CC(N)C(OC3OCC(C)(O)C(NC)C3O)C2O)O1 (stereo not shown),Acinetobacter baumannii,,clinical isolate RKI-No_230/15,,,MIC,> 8 µg/mL
O=C(C1CCCCC1)N1CC(=O)N2CCc3ccccc3[C@@H]2C1,Schistosoma mansoni,,infected mice,200 mg/kg,reference: untreated,worm burden reduction,98%
O=C(Cn1ccnc1[N+](=O)[O-])NCc1ccccc1,Trypanosoma cruzi,parasite growth,"rat L6E9 myoblasts, amastigote",,,pIC50,5.43
